Measurements pooled from the literature.
Compare with care: the assays were run in different laboratories. Numbers after ± are the reported error.

With `N=C(N)NCCC[C@@H]1NC(=O)[C@H](CCCCNC(=O)CNC(=O)CNC(=O)CNC(=O)CC[C@H](NC(=O)CNC(=O)CNC(=O)CNC(=O)c2ccc(NN=Cc3ccccc3S(=O)(=O)O)nc2)C(=O)NCC(=O)NCC(=O)NCC(=O)NCCCC[C@@H]2NC(=O)[C@@H](Cc3ccccc3)NC(=O)[C@H](CC(=O)O)NC(=O)CNC(=O)[C@H](CCCNC(=N)N)NC2=O)NC(=O)[C@@H](Cc2ccccc2)NC(=O)[C@H](CC(=O)O)NC(=O)CNC1=O` [technetium-99m labelled] the tissue uptake was 3.28 ± 0.44 %ID/g (athymic nu/nu mouse, female, MDA-MB-435 xenograft, liver; intravenous, 30 min).
With `CSCC[C@H](NC(=O)[C@H](CC(C)C)NC(=O)[C@H](Cc1c[nH]cn1)NC(=O)CNC(=O)[C@@H](NC(=O)[C@H](C)NC(=O)[C@H](Cc1c[nH]c2ccccc12)NC(=O)[C@H](CCC(N)=O)NC(=O)[C@H](CC(N)=O)NC(=O)CNC(=O)[C@H](Cc1ccc(O)cc1)NC(=O)[C@H](CCCNC(=N)N)NC(=O)[C@H](CCC(N)=O)NC(=O)[C@@H]1CCCN1C(=O)CN1CCN(CC(=O)O)CCN(CC(=O)O)CCN(CC(=O)O)CC1)C(C)C)C(N)=O` [indium-111 labelled] the tissue uptake was 1.4 ± 0.4 %ID/g (Swiss nu/nu mouse, male, PC-3 tumour xenograft, tumour; intravenous, 10 pmol, 4 h).
`N=C(N)NCCC[C@@H]1NC(=O)[C@H](CC(=O)NC23CNCCNCC(N)(CNCCNC2)CNCCNC3)NC(=O)[C@@H](Cc2ccccc2)NC(=O)[C@H](CC(=O)O)NC(=O)CNC1=O` [copper-64 labelled] gave a tissue uptake of 0.81 ± 0.36 %ID/g (Nu/Nu mouse, male, tumour-bearing, muscle; intravenous, 10 µCi, 1 h).
With `CCCC[C@H](NC(=O)CCCCCCCNC(=O)c1ccc(NN)nc1)C(=O)N[C@H]1CC(=O)NCCCC[C@@H](C(N)=O)NC(=O)[C@H](Cc2c[nH]c3ccccc23)NC(=O)[C@H](CCCNC(=N)N)NC(=O)[C@@H](Cc2ccccc2)NC(=O)[C@H](Cc2c[nH]cn2)NC1=O` [technetium-99m labelled] the tissue uptake was 84.5 ± 4.8 %ID (C57 mouse, B16/F1 melanoma, urine; intravenous, 0.037 MBq, 4 h).
With `N=C(N)NCCC[C@@H]1NC(=O)[C@H](CCCCNC(=O)CCOCCOCCOCCOCCNC(=O)CC[C@H](NC(=O)CCOCCOCCOCCOCCNC(=O)CC[C@H](NC(=O)CN2CCN(CC(=O)O)CCN(CC(=O)O)CCN(CC(=O)O)CC2)C(=O)NCCOCCOCCOCCOCCC(=O)N[C@@H](CCC(=O)NCCOCCOCCOCCOCCC(=O)NCCCC[C@@H]2NC(=O)[C@@H](Cc3ccccc3)NC(=O)[C@H](CC(=O)O)NC(=O)CNC(=O)[C@H](CCCNC(=N)N)NC2=O)C(=O)NCCOCCOCCOCCOCCC(=O)NCCCC[C@@H]2NC(=O)[C@@H](Cc3ccccc3)NC(=O)[C@H](CC(=O)O)NC(=O)CNC(=O)[C@H](CCCNC(=N)N)NC2=O)C(=O)NCCOCCOCCOCCOCCC(=O)NCCCC[C@@H]2NC(=O)[C@@H](Cc3ccccc3)NC(=O)[C@H](CC(=O)O)NC(=O)CNC(=O)[C@H](CCCNC(=N)N)NC2=O)NC(=O)[C@@H](Cc2ccccc2)NC(=O)[C@H](CC(=O)O)NC(=O)CNC1=O` [indium-111 labelled] the tissue uptake was 0.5 %ID/g (athymic nude mouse U-87 MG xenograft, intestine; intravenous, 1 h, with: RGD2 co-injected 14 mg/kg).
With `CCCC[C@H](NC(=O)CNC(=O)CNC(=O)c1ccc(NN)nc1)C(=O)N[C@H]1CC(=O)NCCCC[C@@H](C(N)=O)NC(=O)[C@H](Cc2c[nH]c3ccccc23)NC(=O)[C@H](CCCNC(=N)N)NC(=O)[C@@H](Cc2ccccc2)NC(=O)[C@H](Cc2c[nH]cn2)NC1=O` [technetium-99m labelled] the tissue uptake was 0.73 ± 0.21 %ID (C57 mouse, B16/F1 melanoma, intestines; 2 h, with: NDP-MSH 6.07 nmol).
`CSCC[C@H](NC(=O)[C@H](CC(C)C)NC(=O)[C@H](Cc1c[nH]cn1)NC(=O)CNC(=O)[C@@H](NC(=O)[C@H](C)NC(=O)[C@H](Cc1c[nH]c2ccccc12)NC(=O)[C@H](CCC(N)=O)NC(=O)CCCCCNC(=O)CNC(=O)CNC(=O)CNC(=O)CSC(C)=O)C(C)C)C(N)=O` [technetium-99m labelled] gave a tissue uptake of 0.16 ± 0.03 %ID/g (nude mouse, PC-3 xenograft, muscle; 90 min, with: excess unlabelled conjugate).
`N=C(N)NCCC[C@@H]1NC(=O)[C@H](CCCCNC(=O)CNC(=O)CNC(=O)CNC(=O)c2ccc(NN=Cc3ccccc3S(=O)(=O)O)nc2)NC(=O)[C@@H](Cc2ccccc2)NC(=O)[C@H](CC(=O)O)NC(=O)CNC1=O` [technetium-99m labelled] gave a tissue uptake of 6.7 ± 1.59 %ID/g (athymic nu/nu mouse, female, U-87 MG glioma xenograft, tumour; intravenous, 2 µCi, 30 min).
`CCCC[C@H](NC(=O)COCCOCCNC(=O)c1ccc(NN)nc1)C(=O)N[C@H]1CC(=O)NCCCC[C@@H](C(N)=O)NC(=O)[C@H](Cc2c[nH]c3ccccc23)NC(=O)[C@H](CCCNC(=N)N)NC(=O)[C@@H](Cc2ccccc2)NC(=O)[C@H](Cc2c[nH]cn2)NC1=O` [technetium-99m labelled] has a tissue uptake of 0.03 ± 0.01 %ID/g (C57 mouse, female, B16/F1 melanoma, muscle; intravenous, 0.037 MBq, 2 h).
`CCCC[C@H](NC(=O)[C@H](Cc1cccs1)NC(=O)[C@H](Cc1c[nH]cn1)NC(=O)CCNC(=O)[C@@H](NC(=O)[C@H](C)NC(=O)[C@H](Cc1c[nH]c2ccccc12)NC(=O)[C@H](CCC(N)=O)NC(=O)[C@H](Cc1cccs1)NC(=O)CN1CCC(NC(=O)CN(CCN(CCN(CC(=O)O)CC(=O)O)CC(=O)O)CC(=O)O)CC1)C(C)C)C(N)=O` [indium-111 labelled] gave a tissue uptake of 14.7 ± 3.8 %ID/g (Swiss nu/nu mouse, male, PC-3 tumour xenograft, pancreas; intravenous, 10 pmol, 1 h).
For `N=C(N)NCCC[C@@H]1NC(=O)[C@H](CCCCNC(=O)CNC(=O)CNC(=O)CNC(=O)CC[C@H](NC(=O)CNC(=O)CNC(=O)CNC(=O)[C@H](CCCCNC(=O)c2ccc(NN)nc2)NC(=O)c2ccc(NN)nc2)C(=O)NCC(=O)NCC(=O)NCC(=O)NCCCC[C@@H]2NC(=O)[C@@H](Cc3ccccc3)NC(=O)[C@H](CC(=O)O)NC(=O)CNC(=O)[C@H](CCCNC(=N)N)NC2=O)NC(=O)[C@@H](Cc2ccccc2)NC(=O)[C@H](CC(=O)O)NC(=O)CNC1=O` [technetium-99m labelled], the tissue uptake was 6.87 ± 2.98 %ID/g (athymic nude mouse, female, U-87 MG xenograft, intestine; intravenous, 0.1 MBq, 1 h).
`N=C(N)NCCC[C@@H]1NC(=O)[C@H](CCCCNC(=O)CNC(=O)CNC(=O)CNC(=O)CC[C@H](NC(=O)c2ccc(NN=Cc3ccccc3S(=O)(=O)O)nc2)C(=O)NCC(=O)NCC(=O)NCC(=O)NCCCC[C@@H]2NC(=O)[C@@H](Cc3ccccc3)NC(=O)[C@H](CC(=O)O)NC(=O)CNC(=O)[C@H](CCCNC(=N)N)NC2=O)NC(=O)[C@@H](Cc2ccccc2)NC(=O)[C@H](CC(=O)O)NC(=O)CNC1=O` [technetium-99m labelled] has a tissue uptake of 4.2 ± 0.42 %ID/g (athymic nu/nu mouse, female, MDA-MB-435 xenograft, liver; intravenous, 30 min).
`N=C(N)NCCC[C@H](NC(=O)[C@H](CCCCN)NC(=O)[C@H](CCC(N)=O)NC(=O)CCOCCOCCOCCNC(=O)CN1CCN(CC(=O)O)CCN(CC(=O)O)CCN(CC(=O)O)CC1)C(=O)N[C@@H](CCCCN)C(=O)N[C@@H](CCCNC(=N)N)C(=O)N[C@@H](CCCCN)C(=O)N[C@@H](CCCCN)C(=O)N[C@@H](CO)C(=O)N[C@@H](CCCNC(=N)N)C(=O)N[C@@H](Cc1ccc(O)cc1)C(=O)N[C@@H](CCCCN)C(=O)N[C@@H](CO)C(=O)O` [copper-64 labelled] gave a tissue uptake of 1.52 ± 0.72 %ID/g (C57BL/6 Jms mouse, male, B16-F10 melanoma, intestinal lymph node; intravenous, 60 min).
The tissue uptake of `N=C(N)NCCC[C@@H]1NC(=O)[C@H](CCCCNC(=O)CC[C@H](NC(=O)[C@H](CCCCNC(=O)c2ccc(NN)nc2)NC(=O)c2ccc(NN)nc2)C(=O)NCCCC[C@@H]2NC(=O)[C@@H](Cc3ccccc3)NC(=O)[C@H](CC(=O)O)NC(=O)CNC(=O)[C@H](CCCNC(=N)N)NC2=O)NC(=O)[C@@H](Cc2ccccc2)NC(=O)[C@H](CC(=O)O)NC(=O)CNC1=O` [technetium-99m labelled] is reported as 9.29 ± 1.66 %ID/g (athymic nude mouse, female, U-87 MG xenograft, intestine; intravenous, 0.1 MBq, 1 h).

Excerpt of the above:
`N=C(N)NCCC[C@@H]1NC(=O)[C@H](CCCCNC(=O)CNC(=O)CNC(=O)CNC(=O)c2ccc(NN=Cc3ccccc3S(=O)(=O)O)nc2)NC(=O)[C@@H](Cc2ccccc2)NC(=O)[C@H](CC(=O)O)NC(=O)CNC1=O` [technetium-99m labelled] gave a tissue uptake of 6.7 ± 1.59 %ID/g (athymic nu/nu mouse, female, U-87 MG glioma xenograft, tumour; intravenous, 2 µCi, 30 min).
